Experimental data from different studies.
Compare with care: the assays were run in different laboratories. ± marks the error that the study gave.

| SMILES | cell line | test | setting | scale | quantity | result |
| --- | --- | --- | --- | --- | --- | --- |
| Cc1ncsc1-c1ccc([C@H](C)NC(=O)[C@@H]2C[C@@H](O)CN2C(=O)[C@@H](NC(=O)[C@H]2C[C@H](C(=O)N3CCC(c4cc(Nc5cc(C#N)ccn5)nc(N5CCC(F)(F)C5)c4)CC3)C2)C(C)(C)C)cc1 | CAL-33 (dox-induced wild-type LZK) | western blot, measured: phospho-JNK | concentration not given, despite LZK loss |  | time to signal rebound | 24 h |
| CC(C)=CCC1=C([O-])C(=O)c2ccccc2C1=O.CC(C)=CCC1=C([O-])C(=O)c2ccccc2C1=O.Cc1cc2cccnc2c2ncccc12.O.[Cu+2] | A2780 | ICP-MS | concentration not given, 24 h | reference: untreated | intracellular copper | ~4 fold |
| O=Cc1c(O)ccc2ccccc12 | HUVEC | RNA sequencing, measured: GIMAP8 | 75 µM, 24 h | reference: DMSO | log2 fold change | -4.05 |
| Cc1cc(C)c(S(=O)(=O)N(CC(=O)O)c2ccc(Nc3ccnc(N4CCCC4)n3)cc2)c(C)c1 | HCT-116 Cdc37 wild type | PI staining | 10 or 25 µM, 24 h |  | G0-G1 phase cells | increased |
| COc1cc(CNC(=O)C[C@H](C)CCC=C(C)C)ccc1OCc1cn(-c2ccccc2Cl)nn1 | OVCAR-5 ovarian cancer cells | SRB | 10 µM, 48 h |  | growth percent | 93.1% |
| COc1cccc2c(NCc3ccccc3)nc(NCc3cccs3)nc12 | SW-403 | cell growth or viability | 72 h |  | GI50 | 0.35 µM |
| COc1cc(CNC(=O)C[C@H](C)CCC=C(C)C)ccc1O | M14 melanoma cells | SRB | 10 µM, 48 h |  | growth percent | 95.9% |
| CC1=CCC23OC2(C)CCC2C(CN(C)C)C(=O)OC2C13.Cl (centres unmarked) | C6 rat glioma cells |  | 2.5 mg/mL, clonogenic | reference: control | proliferation | 4.19 ± 1.43% |
| COc1cc(CNC(=O)C[C@H](C)CCC=C(C)C)ccc1OCc1cn(-c2ccc(C#N)cc2)nn1 | BT-549 breast cancer cells | SRB | 10 µM, 48 h |  | growth percent | 58.5% |
| CC(=O)OC[C@H]1O[C@@H](Sc2sc(C(=O)c3ccc(C)cc3)c(N)c2-c2nc3ccccc3s2)[C@H](OC(C)=O)[C@@H](OC(C)=O)[C@@H]1OC(C)=O | SF-268 | SRB | 10 µM, 48 h | reference: untreated | growth | 71% |
| COc1ccc(CC2COC(=O)C2Cc2ccc3c(c2)OCO3)cc1OC (mixture of isomers) | A2780 | measured: multi-caspase | 8.75 µM, 72 h | reference: untreated | caspase-positive cells | increased |
| CCOC(=O)C1NC(c2ccc[n+](C)c2)C23c4c5c6c7c8c9c(c%10c%11c2c2c4c4c%12c5c5c6c6c8c8c%13c9c9c%10c%10c%11c%11c2c2c4c4c%12c%12c5c5c6c8c6c8c%13c9c9c%10c%10c%11c2c2c4c4c%12c5c6c5c8c9c%10c2c45)C713 (centres unmarked) | BCBL1 and BC-3 | LDH release | 50 µM, 24 h |  | increase in dead cells | 7 to 15% |
| Oc1ccccc1-c1nn(-c2ccccn2)[n+](-c2ccccc2)n1.[Br-] | A2780 | labile iron pool, calcein-AM | 40 µM, 24 h |  | calcein fluorescence increase | ~68% |
| COc1ccc2c(C)nc(Nc3nc(O)cc(-c4ccccc4)n3)nc2c1 | LDR | silenced GFP reporter derepression, microscopy | overnight | reference: sodium butyrate | Emax | 100% |
| C[N+]1(CC(=O)OC2CCCCCCCCCCC2)CCCCC1 | LNCaP | cell viability, CellTiter Blue | 96 h |  | ED70 | 9.4 µM |
| CC(C)c1cccc(C(C)C)c1N1CCN(c2c(C(C)C)cccc2C(C)C)C1=[Se].[Cl][Ag] | LoVo-OXP colon cancer cells | MTT |  | reference: LoVo-OXP over LoVo IC50 | resistance factor | 1.7 |
| CC/C=C\C/C=C\C/C=C\C/C=C\C/C=C\C/C=C\CCC(=O)Nc1ccn(C2OC(CO)C(O)C2(F)F)c(=O)n1 (centres unmarked) | Panc02 |  | 10 µM, 4 h | reference: gemcitabine | cellular uptake | ~10 fold |
| CCOP(=O)(CC(=O)Nc1ccc(S(=O)(=O)N(CC(N)=O)c2ccc(N(CC(N)=O)S(=O)(=O)c3ccc(OC)cc3)c3ccccc23)cc1)OCC | mouse primary cortical neurons | western blot, measured: phospho-tau | 20 µM, with: amyloid beta |  | protein level | decreased |
| COc1cc(CNC(=O)C[C@H](C)CCC=C(C)C)ccc1OCc1cn(-c2cccc(Cl)c2)nn1 | SNB-19 CNS cancer cells | SRB | 10 µM, 48 h |  | growth percent | 67.9% |
| COc1ccc([C@@H]2CC(=O)c3c(O)cc(O[C@@H]4O[C@H](CO[C@@H]5O[C@@H](C)[C@H](O)[C@@H](O)[C@H]5O)[C@@H](O[C@H]5O[C@H](CO)[C@@H](O)[C@H](O)[C@H]5O)[C@H](O)[C@H]4O)cc3O2)cc1O | A549 | cell migration, scratch | 50 µg/mL, 0 h |  | gap closure | 0% |
| CC(=O)O[C@H]1C2=C(C(=O)C(O)=C(C(C)C)C2=O)[C@@]2(C)CCCC(C)(C)[C@@H]2[C@@H]1O | MRC-5 and NCI-H460 | cell growth, MTT |  | reference: GI50 MRC-5 over NCI-H460 | selectivity index | 3.2 |

| SMILES | cell line | test | setting | scale | quantity | result |
| --- | --- | --- | --- | --- | --- | --- |
| Clc1ccc(NN=C(c2ccccc2)c2ccccn2)nc1 | HCC4017 | chromatin immunoprecipitation, measured: c10orf10 promoter H3K4me3 | 0.5 µM, 24 h | reference: untreated | H3K4me3 level | increased |
| Cc1c2ccnc(C(=O)N[C@H](C)CN(C)C)c2cc2c3cc(OCCCN4CCN(C)CC4)ccc3n(C)c12 | C9orf72 ALS iPSCs | qRT-PCR | 50 nM, with: hnRNP H siRNA |  | C9orf72 intron reduction | 29 ± 6% |
| CCCC[C@H](NC(=O)[C@H](Cc1ccccc1)NC(=O)[C@H](Cc1c[nH]cn1)NC(=O)CCNC(=O)[C@@H](NC(=O)[C@H](C)NC(=O)[C@H](Cc1c[nH]c2ccccc12)NC(=O)[C@H](CCC(N)=O)NC(=O)[C@H](N)Cc1ccc(O)cc1)C(C)C)C(N)=O | NCI-H1299 | Western blot, measured: EGFR tyrosine phosphorylation | 0.1 µM, 2 min | reference: untreated | phosphorylation fold increase | 1.9 fold |
| CCCC(CCC)C(=O)[O][Pt]([NH2])([NH2])([Cl])([Cl])[O]C(=O)c1ccccc1OC(C)=O | HEK293 and PSN1 | cytotoxicity, MTT |  | reference: IC50 HEK293 over IC50 PSN1 | selectivity index | 4.5 |
| CCCC(=O)N1CCN(c2ccc(NC(=O)c3ccc([N+](=O)[O-])o3)cc2Cl)CC1 | LDR | silenced GFP reporter derepression, microscopy | overnight | reference: sodium butyrate | Emax | 22% |
| Cc1nn(-c2ccc(S(=O)(=O)N[C@@H](CO)CC(C)C)cc2)c2nn3nnnc3nc12 | HT-29 | PI/Hoechst staining | 1 µM, 24 h |  | apoptotic cells | 32 ± 4.24% |
| O=C(O)c1ccc(/C=C2\SC(=S)N(Cc3cccc(C(F)(F)F)c3)C2=O)cc1 | LPS-primed human PBMC |  | concentration not given, with: nigericin |  | TNF-α production | no effect |
| CCN(CC)CCCNC(=O)CSc1c2c(nc3cc(Cl)ccc13)CCCC2 | LDR | silenced GFP reporter derepression, microscopy | overnight | reference: sodium butyrate | Emax | 63% |
| COc1cc(C2c3cc4c(cc3C(C(C)C)C3COC(=O)C23)OCO4)cc(OC)c1OC (centres unmarked) | uninfected mouse splenocytes |  |  | reference: splenocyte CC50 over amastigote EC50 | selectivity index | < 0.01 |
| CC(C)c1cccc(C(C)C)c1-n1c(Cl)c(Cl)n(-c2c(C(C)C)cccc2C(C)C)c1=[Se].[Cl][Au] | LoVo-OXP colon cancer cells | MTT |  | reference: LoVo-OXP over LoVo IC50 | resistance factor | 1.2 |
| Cc1cc(CNCCCCCC(=O)NO)ccc1OCc1cccc(-c2ccccc2)c1C | mouse M1 macrophages | measured: Il10 | concentration not given |  | mRNA level | decreased |
| Cc1ccc(C(C)C)cc1.[Cl-].[Cl][Ru+].[Ru+].c1ccc(-c2cn(CCCCOc3ccccc3-c3nc4ccccc4s3)nn2)nc1 | MCF7 | PI flow cytometry, measured: G0/G1 phase | 4 µM, 24 h |  | cells in phase | 71.2% |
| C[C@@H](O)[C@@H]1NC(=O)[C@H](CCCCN)NC(=O)[C@@H](Cc2ccc(NC(N)=O)cc2)NC(=O)[C@H](Cc2ccc(NC(=O)[C@@H]3CC(=O)NC(=O)N3)cc2)NC(=O)[C@H](NC(=O)[C@H](Cc2ccc(Cl)cc2)NC(=O)CN2CCN(CC(=O)O)CCN(CC(=O)O)CCN(CC(=O)O)CC2)CSSC[C@@H](C(=O)N[C@H](Cc2ccc(O)cc2)C(N)=O)NC1=O | AR-42J | radioligand uptake | concentration not given, 4 h |  | internalized fraction of cell activity | 20.9 ± 0.59% |
| COc1ccc(NC(=O)COc2ccc(/C=C/C(C)=N/O)cc2OC)cc1 | SH-SY5Y | flow cytometry | 2.5 µM, with: amyloid beta 10 µM |  | IL-6 expressing cells | 48.8% |
| C=C(CC)C(=O)c1ccc(OCC(=O)NCCNC(=O)COc2ccc(C(=O)C(=C)CC)c(Cl)c2Cl)c(Cl)c1Cl | CoC1 | cell growth, CCK-8 | 1.0 µM, with: cisplatin |  | sensitisation to cisplatin | ~2 fold |
| COc1cc(CNC(=O)C[C@H](C)CCC=C(C)C)ccc1OCc1cn(-c2ccc(F)cc2)nn1 | SNB-19 CNS cancer cells | SRB | 10 µM, 48 h |  | growth percent | 53.1% |
| CCCCCCCCC1(CCCCCCCC)c2cc(-c3cc4[n+]5c(c3)-c3cccc[n+]3[Ir-3]536([c]5ccccc5-c5cc(-c7ccccc7)cc([n+]53)-c3cccc[c]36)[n+]3ccccc3-4)ccc2-c2ccc(-c3cc4[n+]5c(c3)-c3cccc[n+]3[Ir-3]536([c]5ccccc5-c5cc(-c7ccccc7)cc([n+]53)-c3cccc[c]36)[n+]3ccccc3-4)cc21.F[P-](F)(F)(F)(F)F.F[P-](F)(F)(F)(F)F | SK-MEL-28 |  | visible light 100 J/cm2 | reference: dark EC50 over visible-light EC50 | phototherapeutic index | 66 |
| COc1cc(CNC(=O)C[C@H](C)CCC=C(C)C)ccc1OCc1cn(-c2ccccc2F)nn1 | SNB-19 CNS cancer cells | SRB | 10 µM, 48 h |  | growth percent | 55.7% |
| CC1=C/C(=N\N=C(/S)Nc2cccnc2)CC(C)(C)C1 | LDR | silenced GFP reporter derepression, microscopy | overnight | reference: sodium butyrate | Emax | 95% |
| Cc1noc(NS(=O)(=O)c2ccc(NC(=O)c3cc(-c4cccc(Cl)c4)nc4ccccc34)cc2)c1C | mouse spleen cells | cell proliferation, MTT | 10 µM, 72 h, with: concanavalin A 5 µg/mL |  | inhibition | 29.8 ± 5% |

Excerpt of the above:
| SMILES | cell line | test | setting | scale | quantity | result |
| --- | --- | --- | --- | --- | --- | --- |
| COc1cc(CNC(=O)C[C@H](C)CCC=C(C)C)ccc1OCc1cn(-c2ccccc2F)nn1 | SNB-19 CNS cancer cells | SRB | 10 µM, 48 h |  | growth percent | 55.7% |
| Cc1c2ccnc(C(=O)N[C@H](C)CN(C)C)c2cc2c3cc(OCCCN4CCN(C)CC4)ccc3n(C)c12 | C9orf72 ALS iPSCs | qRT-PCR | 50 nM, with: hnRNP H siRNA |  | C9orf72 intron reduction | 29 ± 6% |
| CCCC(CCC)C(=O)[O][Pt]([NH2])([NH2])([Cl])([Cl])[O]C(=O)c1ccccc1OC(C)=O | HEK293 and PSN1 | cytotoxicity, MTT |  | reference: IC50 HEK293 over IC50 PSN1 | selectivity index | 4.5 |
